Assay results pooled from the literature.
Each line is one published result; not all experiments were run side by side. Values joined by “and” are separate records of one study, mostly repeats; a detail may differ. ± marks the error that the study gave.
Genome polyprotein NS3 helicase domain: Genome polyprotein, NS3 helicase domain (Hepatitis C virus genotype 1b, UniProt Q9WMX2)
RORC: Nuclear receptor ROR-gamma (RORC, Homo sapiens, UniProt P51449)
Sequence of UniProt P51449 (whole entry, looked up): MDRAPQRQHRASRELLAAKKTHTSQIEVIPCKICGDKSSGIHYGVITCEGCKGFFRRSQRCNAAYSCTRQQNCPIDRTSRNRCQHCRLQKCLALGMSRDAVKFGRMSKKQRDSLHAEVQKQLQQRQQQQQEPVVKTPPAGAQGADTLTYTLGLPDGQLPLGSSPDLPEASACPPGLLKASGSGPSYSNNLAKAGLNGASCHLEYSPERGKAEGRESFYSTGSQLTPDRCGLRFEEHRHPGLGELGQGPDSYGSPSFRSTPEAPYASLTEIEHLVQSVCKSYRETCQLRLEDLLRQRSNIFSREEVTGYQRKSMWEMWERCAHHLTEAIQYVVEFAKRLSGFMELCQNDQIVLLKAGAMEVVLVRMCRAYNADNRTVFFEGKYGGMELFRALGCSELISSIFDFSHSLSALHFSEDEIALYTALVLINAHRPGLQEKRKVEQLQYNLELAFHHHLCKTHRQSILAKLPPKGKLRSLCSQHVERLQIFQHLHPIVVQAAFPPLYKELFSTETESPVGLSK
WD repeat-containing protein 91 WD40 domain, residues 392–747: WD repeat-containing protein 91, WD40 domain, residues 392–747 (Homo sapiens, UniProt A4D1P6)
Sequence of UniProt A4D1P6 (whole entry, looked up): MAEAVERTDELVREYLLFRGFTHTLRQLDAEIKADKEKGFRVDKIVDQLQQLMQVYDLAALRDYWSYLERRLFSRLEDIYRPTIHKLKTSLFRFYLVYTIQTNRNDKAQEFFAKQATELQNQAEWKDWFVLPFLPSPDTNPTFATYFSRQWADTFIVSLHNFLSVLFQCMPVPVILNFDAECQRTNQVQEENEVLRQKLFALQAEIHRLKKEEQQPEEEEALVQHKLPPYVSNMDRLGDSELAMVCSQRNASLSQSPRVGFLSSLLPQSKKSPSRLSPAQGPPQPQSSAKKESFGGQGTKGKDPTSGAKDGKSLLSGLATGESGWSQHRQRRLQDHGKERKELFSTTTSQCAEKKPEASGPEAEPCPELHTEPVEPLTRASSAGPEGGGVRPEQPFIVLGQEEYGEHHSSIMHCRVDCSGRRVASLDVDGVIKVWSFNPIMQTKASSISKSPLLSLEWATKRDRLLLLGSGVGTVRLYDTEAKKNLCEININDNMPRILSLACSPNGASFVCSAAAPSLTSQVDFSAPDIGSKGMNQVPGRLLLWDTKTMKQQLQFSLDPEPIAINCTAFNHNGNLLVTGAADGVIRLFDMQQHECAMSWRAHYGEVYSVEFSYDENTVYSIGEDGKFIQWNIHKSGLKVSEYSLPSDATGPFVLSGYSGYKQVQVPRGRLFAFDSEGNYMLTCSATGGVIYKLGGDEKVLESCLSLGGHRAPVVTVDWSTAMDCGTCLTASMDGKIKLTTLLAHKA
T1: riboswitch RNA yjdF aptamer, P2a helix from Ruminococcus (Bacillus subtilis); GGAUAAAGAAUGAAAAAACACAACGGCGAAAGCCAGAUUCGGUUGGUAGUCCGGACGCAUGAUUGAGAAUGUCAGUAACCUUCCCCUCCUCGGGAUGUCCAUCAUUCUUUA
Sequence of UniProt O76090 (whole entry, unmodified, looked up): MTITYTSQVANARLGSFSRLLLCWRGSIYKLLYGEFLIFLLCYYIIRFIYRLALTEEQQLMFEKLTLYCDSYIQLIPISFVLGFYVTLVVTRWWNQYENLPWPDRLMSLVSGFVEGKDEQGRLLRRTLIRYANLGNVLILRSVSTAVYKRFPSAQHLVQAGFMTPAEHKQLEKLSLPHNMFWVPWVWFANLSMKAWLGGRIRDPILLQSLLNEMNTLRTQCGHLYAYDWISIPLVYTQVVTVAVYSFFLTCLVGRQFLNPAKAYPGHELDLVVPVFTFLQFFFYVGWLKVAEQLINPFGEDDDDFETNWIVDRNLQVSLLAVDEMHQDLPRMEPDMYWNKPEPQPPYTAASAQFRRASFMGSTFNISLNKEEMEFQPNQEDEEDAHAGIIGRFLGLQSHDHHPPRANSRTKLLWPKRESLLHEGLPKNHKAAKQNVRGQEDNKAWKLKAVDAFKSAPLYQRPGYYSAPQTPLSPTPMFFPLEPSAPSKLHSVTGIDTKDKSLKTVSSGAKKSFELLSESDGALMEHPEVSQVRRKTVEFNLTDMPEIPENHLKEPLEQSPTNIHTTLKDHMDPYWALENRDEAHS
Sequence of UniProt Q14258 (whole entry, looked up): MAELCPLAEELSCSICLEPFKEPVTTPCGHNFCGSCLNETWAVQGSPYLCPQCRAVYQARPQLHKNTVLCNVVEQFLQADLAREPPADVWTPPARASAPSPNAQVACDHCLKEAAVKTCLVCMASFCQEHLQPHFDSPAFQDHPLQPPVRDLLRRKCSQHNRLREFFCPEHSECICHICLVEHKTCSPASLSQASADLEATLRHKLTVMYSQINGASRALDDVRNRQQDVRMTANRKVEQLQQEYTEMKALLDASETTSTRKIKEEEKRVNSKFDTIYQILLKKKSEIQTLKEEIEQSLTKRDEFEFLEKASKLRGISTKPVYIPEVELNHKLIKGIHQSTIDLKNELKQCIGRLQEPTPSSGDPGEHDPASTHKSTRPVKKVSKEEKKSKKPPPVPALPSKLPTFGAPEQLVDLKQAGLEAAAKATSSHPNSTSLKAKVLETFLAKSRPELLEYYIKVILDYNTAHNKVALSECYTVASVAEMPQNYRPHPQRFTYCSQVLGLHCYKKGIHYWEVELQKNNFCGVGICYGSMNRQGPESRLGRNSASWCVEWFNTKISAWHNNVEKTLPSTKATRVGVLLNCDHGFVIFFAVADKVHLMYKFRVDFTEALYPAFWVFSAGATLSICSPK
Sequence of UniProt Q16774 (whole entry, unmodified, looked up): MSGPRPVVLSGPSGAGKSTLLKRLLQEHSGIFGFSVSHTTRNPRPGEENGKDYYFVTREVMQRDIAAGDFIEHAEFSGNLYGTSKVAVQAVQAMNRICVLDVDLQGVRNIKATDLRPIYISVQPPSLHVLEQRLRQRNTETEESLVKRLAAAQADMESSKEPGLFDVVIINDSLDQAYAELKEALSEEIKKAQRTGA
Sequence of UniProt Q92570 (whole entry, looked up): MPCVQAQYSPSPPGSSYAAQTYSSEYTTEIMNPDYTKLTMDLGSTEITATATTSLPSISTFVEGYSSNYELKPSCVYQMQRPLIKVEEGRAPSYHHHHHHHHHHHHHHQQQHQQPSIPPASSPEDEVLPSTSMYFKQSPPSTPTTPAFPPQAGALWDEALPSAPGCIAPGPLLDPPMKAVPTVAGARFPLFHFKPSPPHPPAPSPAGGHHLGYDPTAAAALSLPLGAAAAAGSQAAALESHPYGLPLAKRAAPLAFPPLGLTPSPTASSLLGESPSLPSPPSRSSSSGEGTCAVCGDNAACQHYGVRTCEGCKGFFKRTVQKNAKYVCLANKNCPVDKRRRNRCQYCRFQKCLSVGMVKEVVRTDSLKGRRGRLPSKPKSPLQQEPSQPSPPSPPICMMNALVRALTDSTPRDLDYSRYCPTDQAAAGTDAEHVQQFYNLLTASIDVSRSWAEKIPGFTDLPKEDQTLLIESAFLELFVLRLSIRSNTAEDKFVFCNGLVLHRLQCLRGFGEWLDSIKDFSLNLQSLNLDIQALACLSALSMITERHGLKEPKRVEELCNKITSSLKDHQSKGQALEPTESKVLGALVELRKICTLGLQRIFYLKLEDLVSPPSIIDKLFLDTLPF
Sequence of UniProt Q8N568 (whole entry, looked up): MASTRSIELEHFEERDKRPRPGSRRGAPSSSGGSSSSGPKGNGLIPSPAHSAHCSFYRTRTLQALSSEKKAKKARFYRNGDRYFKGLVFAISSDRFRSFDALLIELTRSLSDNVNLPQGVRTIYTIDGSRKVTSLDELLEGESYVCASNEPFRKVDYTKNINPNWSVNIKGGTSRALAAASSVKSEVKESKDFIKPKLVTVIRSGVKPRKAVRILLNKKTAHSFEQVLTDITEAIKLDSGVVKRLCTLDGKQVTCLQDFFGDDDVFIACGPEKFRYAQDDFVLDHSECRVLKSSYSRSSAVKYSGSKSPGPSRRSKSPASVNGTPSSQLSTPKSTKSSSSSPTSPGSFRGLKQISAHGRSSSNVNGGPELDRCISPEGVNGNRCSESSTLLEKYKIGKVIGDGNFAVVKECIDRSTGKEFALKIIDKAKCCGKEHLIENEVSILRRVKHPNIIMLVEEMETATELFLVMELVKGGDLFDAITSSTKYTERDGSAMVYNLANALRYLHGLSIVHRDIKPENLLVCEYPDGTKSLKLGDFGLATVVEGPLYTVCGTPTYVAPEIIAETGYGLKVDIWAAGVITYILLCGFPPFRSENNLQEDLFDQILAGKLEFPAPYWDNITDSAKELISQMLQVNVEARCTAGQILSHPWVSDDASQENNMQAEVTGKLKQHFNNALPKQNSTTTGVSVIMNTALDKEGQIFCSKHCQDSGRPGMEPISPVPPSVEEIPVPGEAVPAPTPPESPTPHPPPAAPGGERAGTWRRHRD
Sequence of UniProt P55061 (whole entry, looked up): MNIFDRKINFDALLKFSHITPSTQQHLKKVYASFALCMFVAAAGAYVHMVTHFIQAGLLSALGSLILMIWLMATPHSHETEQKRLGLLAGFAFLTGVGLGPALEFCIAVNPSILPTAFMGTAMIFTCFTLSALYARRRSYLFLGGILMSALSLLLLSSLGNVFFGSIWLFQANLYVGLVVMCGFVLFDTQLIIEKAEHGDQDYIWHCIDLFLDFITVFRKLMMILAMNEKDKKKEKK
Sequence of UniProt P03372 (whole entry, looked up): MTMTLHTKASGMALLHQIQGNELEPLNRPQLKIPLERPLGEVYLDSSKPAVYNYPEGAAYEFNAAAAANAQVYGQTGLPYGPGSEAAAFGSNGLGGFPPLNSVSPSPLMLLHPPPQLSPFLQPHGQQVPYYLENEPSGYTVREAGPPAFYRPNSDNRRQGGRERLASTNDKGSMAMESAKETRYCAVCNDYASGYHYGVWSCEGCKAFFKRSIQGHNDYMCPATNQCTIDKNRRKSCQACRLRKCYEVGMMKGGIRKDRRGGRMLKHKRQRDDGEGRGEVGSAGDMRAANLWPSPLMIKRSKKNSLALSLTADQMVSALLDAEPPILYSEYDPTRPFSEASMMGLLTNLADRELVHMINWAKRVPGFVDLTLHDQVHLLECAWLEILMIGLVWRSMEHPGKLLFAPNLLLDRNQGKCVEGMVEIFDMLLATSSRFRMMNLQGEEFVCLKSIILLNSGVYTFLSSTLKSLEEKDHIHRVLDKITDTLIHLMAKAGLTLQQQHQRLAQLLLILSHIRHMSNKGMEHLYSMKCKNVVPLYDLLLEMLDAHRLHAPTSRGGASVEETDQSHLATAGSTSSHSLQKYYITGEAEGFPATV

C=CC(=O)N1CCC(COCC(=O)N2CCN(c3nc(-c4cnc(N)nc4C(F)F)nc(N4CCOC[C@@H]4C)n3)CC2)CC1 — remaining binding (Serine/threonine-protein kinase DCLK2 (DCLK2, Homo sapiens, UniProt Q8N568); KINOMEscan; 1 µM): 92%
Nc1nc2c(ncn2[C@@H]2O[C@H](COP(=O)(O)O)[C@@H](O)[C@H]2O)c(=O)[nH]1 — reaction rate (GUK1 (Homo sapiens, UniProt Q16774, T83A); enzyme activity, NADH-coupled; 1000 µM): 28.4 s⁻¹ and 28.8 s⁻¹ and 27.7 s⁻¹
COC1=C(OC)C(=O)C(CC=C(C)C)=C(C)C1=O — Km (FSP1 L323A mutant; substrate; together with: 100 µM co-substrate): 16.2 ± 4.23 µM
CC(C)C[C@H](NC(=O)C[C@H](O)[C@H](CC(C)C)NC(=O)[C@H](Cc1c[nH]cn1)NC(=O)CNC(=O)[C@@H](NC(=O)[C@H](C)NC(=O)[C@H](Cc1c[nH]c2ccccc12)NC(=O)[C@H](CCC(N)=O)NC(=O)[C@@H](Cc1ccccc1)NC(=O)COCCOCCNC(=O)CCC(C(=O)O)N1CCN(CC(=O)O)CCN(CC(=O)O)CCN(CC(=O)O)CC1)C(C)C)C(N)=O (some centres unmarked) [lutetium-177 labelled] — tissue uptake (BALB/c nu/nu mice, small intestine; 250 pmol, 1 h, together with: PA 300 µg): 0.7 ± 0.3 %ID/g
Nc1ccccc1C(=O)/C=C/c1cccc([N+](=O)[O-])c1 — conformation (Bax inhibitor 1 (TMBIM6, Homo sapiens, UniProt P55061); protein conformation): no effect
CN1[C@@H](CC(=O)c2ccccc2)CCC[C@H]1C[C@H](O)c1ccccc1.Cl — inhibition (Genome polyprotein NS3 helicase domain; DNA binding, inhibitor; hepatitis C virus; 100 µM, together with: Cy5-dT15 DNA): 0%
Cc1cc2nc3[nH]c(=O)[nH]c(=O)c3nc2cc1C — Kd (T1, riboswitch RNA yjdF aptamer, P2a helix from Ruminococcus (Bacillus subtilis); fluorescence titration; together with: 380 nM lumichrome): 40 nM
C[C@]12C[C@H](O)[C@H]3[C@@H](CCC4=CC(=O)CC[C@@]43C)[C@@H]1CC[C@@H]2C(=O)CO — inhibition (Genome polyprotein NS3 helicase domain; DNA binding, inhibitor; hepatitis C virus; 100 µM, together with: Cy5-dT15 DNA): 0%
COc1cc(Nc2ncc3c(n2)-c2ccc(Cl)cc2C(c2c(F)cccc2OC)=NC3)ccc1C(=O)O — remaining activity (FLT4; kinase activity; 1 µM): 23%
CC(C)=CCC/C(C)=C/CC/C(C)=C/COP(=O)(O)OP(=O)(O)O — Km (Sphagneticola trilobata; β-caryophyllene formation, substrate; 10 min, 35 °C): 5.01 µM
CC[C@H](C)[C@H](NC(=O)[C@H](CCCCN)NC(=O)CNC(=O)[C@@H](NC(=O)[C@@H](NC(=O)[C@H](CCSC)NC(=O)[C@H](Cc1c[nH]cn1)NC(=O)CN)[C@@H](C)O)C(C)C)C(=O)N[C@@H](Cc1ccc(O)cc1)C(=O)N[C@@H](C)C(=O)N[C@@H](C)C(=O)N[C@@H](C)C(=O)N[C@@H](CCSC)C(=O)N[C@H](C(=O)N[C@@H](CCSC)C(=O)N[C@@H](CCC(=O)O)C(=O)N[C@@H](Cc1ccc(O)cc1)C(=O)N[C@@H](Cc1ccc(O)cc1)C(=O)N[C@@H](CCCNC(=N)N)C(=O)N[C@@H](CCC(N)=O)C(=O)N[C@@H](CO)C(=O)N[C@@H](CCCCN)C(=O)N[C@@H](C)C(=O)N[C@@H](CCCCN)C(=O)N[C@@H](CCCCN)C(=O)N[C@@H](CC(C)C)C(=O)N[C@@H](CCC(N)=O)C(=O)N[C@@H](C)C(=O)N[C@@H](CCSC)C(=O)N[C@@H](CCCNC(=N)N)C(=O)O)[C@@H](C)CC — ΔH (Calmodulin-1, Ca2+-bound C-lobe (CALM1, Homo sapiens, UniProt P0DP23); binding, isothermal titration calorimetry; pH 7.4, 15 °C, C-lobe, CaV2.1 IQ domain, together with: Ca2+): -3.84 ± 0.02 kcal/mol
CCCCC[S+]([O-])c1n[nH]c(N)n1 (centres unmarked) — fold enrichment (Transducin-like enhancer protein 4 (TLE4, Homo sapiens, UniProt Q04727); binding, affinity selection mass spectrometry; reference: other proteins in batch): 0.874
CC1(c2cccc([N+](=O)[O-])c2)Nc2ccccc2C(=O)N1N=Cc1cc(Br)cc(Br)c1O (centres unmarked) — activity class (RORC; cell-based; concentration not given): active
COc1cc(F)ccc1-c1ncnc(Nc2cccc(C[S@](C)(=N)=O)c2)n1 — remaining activity (Serine/threonine-protein kinase D1 (PRKD1, Homo sapiens, UniProt Q15139); kinase activity; 10 µM, together with: 10 µM ATP): 103%
N.N.N.Nc1ncnc2c1ncn2C1OC(COP(=O)(O)OP(=O)(O)OP(=O)(O)OP(=O)(O)OC[C@H]2O[C@@H](n3cnc4c(N)ncnc43)C(O)C2O)[C@@H](O)C1O (stereo in doubt) — inhibition (Genome polyprotein NS3 helicase domain; DNA binding, inhibitor; hepatitis C virus; 100 µM, together with: Cy5-dT15 DNA): 3%
FC(F)(F)c1cc(Nc2nc(Cl)nc(Cl)n2)cc(C(F)(F)F)c1 — pseudo-first-order rate constant (reaction with N-acetyl-lysine, HPLC-MS; pH 10.2, together with: N-α-acetyl-lysine): 8.1 h⁻¹
N[C@H]1CON=C1O — inhibition (Genome polyprotein NS3 helicase domain; DNA binding, inhibitor; hepatitis C virus; 100 µM, together with: Cy5-dT15 DNA): 0%
COc1ccccc1N(C)S(=O)(=O)c1ccc(C(=O)N2CCC(C#N)CC2)cc1 — SPR response (WD repeat-containing protein 91 WD40 domain, residues 392–747; binding, SPR single-concentration screen; 45 µM): -0.8 RU and -1.3 RU
CCCCCCCC(=O)c1cc(OC)c(OC)c(OC)c1CC(=O)OCC — activation (Nuclear receptor subfamily 4 group A member 3, ligand-binding domain (Homo sapiens, UniProt Q92570); reporter gene, Gal4 hybrid reporter; 10 µM; reference: vehicle): 0.91 fold
N#Cc1cccc2c1CC[C@H]2NC(=O)c1ccc(SCc2cn3ccccc3n2)cc1 — binding (WD repeat-containing protein 91 WD40 domain, residues 392–747; SPR; 45 µM): 70% and 112%
O=C(O)[C@H]1O[C@@H](Oc2cc3oc(-c4ccccc4)cc(=O)c3c(O)c2O)[C@H](O)[C@@H](O)[C@@H]1O — selectivity ratio (Estrogen receptor (ESR1, Homo sapiens, UniProt P03372); array formation; PRL-HeLa; reference: EC50 ERβ over EC50 ERα): 1.04
O=C1NC(=O)C(c2ccccc2)(c2ccccc2)N1 — activation (Glutamate receptor 2 (Homo sapiens, UniProt P42262); ion current, agonist, SyncroPatch patch clamp; HEK293; 3 µM): 4%
COc1ccccc1COc1ccc2c(c1)N(S(=O)(=O)c1cccc(C(F)(F)F)c1)CC2 — maximum fold change (RORC; reporter gene, agonist, GAL4 luciferase reporter; together with: ursolic acid 2 µM; reference: DMSO): 0.62 ± 0.16
COc1ccc(CN(CCN(C)C)c2ccccn2)cc1 — inhibition (Genome polyprotein NS3 helicase domain; DNA binding, inhibitor; hepatitis C virus; 100 µM, together with: Cy5-dT15 DNA): 3%
Nc1ccc(C(=O)O)cc1 — current density (BEST1, with wild-type BEST1 (Homo sapiens, UniProt O76090, Q293K); ion current, whole-cell patch clamp; HEK293 co-expressing mutant and wild-type; concentration not given, voltage 80 mV): 12 pA/pF and 32.9 pA/pF and 18.7 pA/pF and 7.82 pA/pF and 11.7 pA/pF and 22.3 pA/pF
CN(C)CC/C=C1/c2ccccc2Sc2ccc(Cl)cc21 — inhibition (Genome polyprotein NS3 helicase domain; DNA binding, inhibitor; hepatitis C virus; 100 µM, together with: Cy5-dT15 DNA): 0%
CNC(=O)c1ccc(C(=O)Nc2ccc3c(=O)[nH]c(-c4ccc(C(C)(C)O)cc4)nc3c2)cc1 — selectivity ratio (Poly [ADP-ribose] polymerase tankyrase-2 (TNKS2, Homo sapiens, UniProt Q9H2K2); PARylation, inhibitor, biochemical PARylation; reference: TNKS1 IC50 over TNKS2 IC50): 26.9
CN(Cc1cc(C(F)(F)F)cc(C(F)(F)F)c1)c1nc2ccccc2c(=O)s1 — pseudo-first-order rate constant (reaction with N-acetyl-lysine, HPLC-MS; pH 10.2, together with: N-α-acetyl-lysine): 0 h⁻¹
O=C(COc1ccccc1[N+](=O)[O-])Nc1ccccc1N1CCOCC1 — Kd (Cyclin-dependent kinase 2, with cyclin A (CDK2, Homo sapiens, UniProt P24941)): > 100000 nM
N#CC1CCN(C(=O)c2ccc(CCc3ccccc3)cc2)CC1 — SPR response (WD repeat-containing protein 91 WD40 domain, residues 392–747; binding, SPR single-concentration screen; 45 µM): -3.9 RU and -0.9 RU
Cn1cc(-c2ccc(-c3cncc(Cl)c3N3CCC4(CCNC4=O)CC3)cc2)cn1 — log2 fold change (COLO 205; gene expression, microarray, refers to: CD55 mRNA; concentration not given, 2 h; reference: untreated cells): 2.23
CC[C@@H]1[C@H](F)C(=O)N[C@@H]1COc1nccc2cc(C(N)=O)c(OC)cc12 — inhibition (Dual specificity mitogen-activated protein kinase kinase 4 (MAP2K4, Homo sapiens, UniProt P45985); ATP-site probe binding, ActivX profiling; THP-1 cell lysate; 0.01 mM, Lys2 site): -5.8%
[O-][S+]1CCCCS1 (centres unmarked) — SOD1 dimer fraction (Superoxide dismutase [Cu-Zn] (SOD1, Homo sapiens, UniProt P00441, G94A); LC-MS; human whole blood; 10 µM, 1 h, 37 °C): 1.02%
CNCc1ccc(-c2[nH]c3cc(F)cc4c3c2CCNC4=O)cc1 — cough incidence (patients; oral, 240 mg twice daily, all grades): 33.3%
O=C(NC1CCCS(=O)(=O)c2ccccc21)c1ccc2nc(O)cnc2c1 (centres unmarked) — SPR response (WD repeat-containing protein 91 (Homo sapiens, UniProt A4D1P6); binding, SPR steady state; 0.05859 µM): -0.0183 RU
O=C(COP(=O)(O)O)[C@@H](O)[C@H](O)[C@H](O)COP(=O)(O)O — thermal stability ratio (E3 ubiquitin/ISG15 ligase TRIM25 (TRIM25, Homo sapiens, UniProt Q14258); thermal proteome profiling; HepG2 cell lysate; concentration not given, 57 over 37 °C; reference: compound over control): 0.455 and 0.533 and 0.875
COc1cc(/C=C/C(=O)C(=Cc2ccccc2)C(=O)/C=C/c2ccc(O)c(OC)c2)ccc1O — ΔS (haemin; binding, isothermal titration calorimetry; pH 7.4, 37 °C): -219 ± 7.21 J/(mol·K)
c1csc(CNc2cc[nH]n2)c1 — cells with numerical aberrations (human peripheral blood lymphocytes (female); 1560 µg/mL, 4 h, initial, together with: with S9): 0%

A few entries again:
CNCc1ccc(-c2[nH]c3cc(F)cc4c3c2CCNC4=O)cc1 — cough incidence (patients; oral, 240 mg twice daily, all grades): 33.3%
FC(F)(F)c1cc(Nc2nc(Cl)nc(Cl)n2)cc(C(F)(F)F)c1 — pseudo-first-order rate constant (reaction with N-acetyl-lysine, HPLC-MS; pH 10.2, together with: N-α-acetyl-lysine): 8.1 h⁻¹
O=C1NC(=O)C(c2ccccc2)(c2ccccc2)N1 — activation (Glutamate receptor 2 (Homo sapiens, UniProt P42262); ion current, agonist, SyncroPatch patch clamp; HEK293; 3 µM): 4%
